{"data": "Measured values of several laboratories", "note": "A part holds a random share of what one study measured. ± gives the spread as reported.", "UniProt P25929, sequence (whole entry, looked up)": "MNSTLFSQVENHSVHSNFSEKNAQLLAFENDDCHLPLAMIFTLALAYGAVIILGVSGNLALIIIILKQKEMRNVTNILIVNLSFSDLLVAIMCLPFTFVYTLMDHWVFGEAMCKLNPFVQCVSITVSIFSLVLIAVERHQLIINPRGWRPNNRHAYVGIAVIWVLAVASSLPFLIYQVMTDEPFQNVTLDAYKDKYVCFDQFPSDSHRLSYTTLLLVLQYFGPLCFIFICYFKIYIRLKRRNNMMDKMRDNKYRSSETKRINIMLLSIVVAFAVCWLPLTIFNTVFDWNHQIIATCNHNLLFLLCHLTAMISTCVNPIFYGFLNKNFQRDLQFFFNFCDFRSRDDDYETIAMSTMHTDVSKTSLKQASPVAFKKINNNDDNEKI", "UniProt P34913, sequence (whole entry, looked up)": "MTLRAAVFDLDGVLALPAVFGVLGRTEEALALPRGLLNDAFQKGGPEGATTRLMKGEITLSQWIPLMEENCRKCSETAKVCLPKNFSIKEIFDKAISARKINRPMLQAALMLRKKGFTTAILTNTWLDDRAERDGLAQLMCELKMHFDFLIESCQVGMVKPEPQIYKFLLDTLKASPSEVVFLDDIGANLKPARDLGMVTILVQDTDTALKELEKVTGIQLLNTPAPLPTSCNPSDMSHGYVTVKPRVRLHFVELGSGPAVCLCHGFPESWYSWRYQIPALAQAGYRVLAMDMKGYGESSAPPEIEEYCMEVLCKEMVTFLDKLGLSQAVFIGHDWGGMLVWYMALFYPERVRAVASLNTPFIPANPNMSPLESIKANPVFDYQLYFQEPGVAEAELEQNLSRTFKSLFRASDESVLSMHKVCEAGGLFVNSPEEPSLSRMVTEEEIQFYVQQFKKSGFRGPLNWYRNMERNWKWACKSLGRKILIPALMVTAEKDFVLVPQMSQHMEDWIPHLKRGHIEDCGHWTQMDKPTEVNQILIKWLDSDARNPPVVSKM", "UniProt Q86U86, sequence (whole entry, unmodified, looked up)": "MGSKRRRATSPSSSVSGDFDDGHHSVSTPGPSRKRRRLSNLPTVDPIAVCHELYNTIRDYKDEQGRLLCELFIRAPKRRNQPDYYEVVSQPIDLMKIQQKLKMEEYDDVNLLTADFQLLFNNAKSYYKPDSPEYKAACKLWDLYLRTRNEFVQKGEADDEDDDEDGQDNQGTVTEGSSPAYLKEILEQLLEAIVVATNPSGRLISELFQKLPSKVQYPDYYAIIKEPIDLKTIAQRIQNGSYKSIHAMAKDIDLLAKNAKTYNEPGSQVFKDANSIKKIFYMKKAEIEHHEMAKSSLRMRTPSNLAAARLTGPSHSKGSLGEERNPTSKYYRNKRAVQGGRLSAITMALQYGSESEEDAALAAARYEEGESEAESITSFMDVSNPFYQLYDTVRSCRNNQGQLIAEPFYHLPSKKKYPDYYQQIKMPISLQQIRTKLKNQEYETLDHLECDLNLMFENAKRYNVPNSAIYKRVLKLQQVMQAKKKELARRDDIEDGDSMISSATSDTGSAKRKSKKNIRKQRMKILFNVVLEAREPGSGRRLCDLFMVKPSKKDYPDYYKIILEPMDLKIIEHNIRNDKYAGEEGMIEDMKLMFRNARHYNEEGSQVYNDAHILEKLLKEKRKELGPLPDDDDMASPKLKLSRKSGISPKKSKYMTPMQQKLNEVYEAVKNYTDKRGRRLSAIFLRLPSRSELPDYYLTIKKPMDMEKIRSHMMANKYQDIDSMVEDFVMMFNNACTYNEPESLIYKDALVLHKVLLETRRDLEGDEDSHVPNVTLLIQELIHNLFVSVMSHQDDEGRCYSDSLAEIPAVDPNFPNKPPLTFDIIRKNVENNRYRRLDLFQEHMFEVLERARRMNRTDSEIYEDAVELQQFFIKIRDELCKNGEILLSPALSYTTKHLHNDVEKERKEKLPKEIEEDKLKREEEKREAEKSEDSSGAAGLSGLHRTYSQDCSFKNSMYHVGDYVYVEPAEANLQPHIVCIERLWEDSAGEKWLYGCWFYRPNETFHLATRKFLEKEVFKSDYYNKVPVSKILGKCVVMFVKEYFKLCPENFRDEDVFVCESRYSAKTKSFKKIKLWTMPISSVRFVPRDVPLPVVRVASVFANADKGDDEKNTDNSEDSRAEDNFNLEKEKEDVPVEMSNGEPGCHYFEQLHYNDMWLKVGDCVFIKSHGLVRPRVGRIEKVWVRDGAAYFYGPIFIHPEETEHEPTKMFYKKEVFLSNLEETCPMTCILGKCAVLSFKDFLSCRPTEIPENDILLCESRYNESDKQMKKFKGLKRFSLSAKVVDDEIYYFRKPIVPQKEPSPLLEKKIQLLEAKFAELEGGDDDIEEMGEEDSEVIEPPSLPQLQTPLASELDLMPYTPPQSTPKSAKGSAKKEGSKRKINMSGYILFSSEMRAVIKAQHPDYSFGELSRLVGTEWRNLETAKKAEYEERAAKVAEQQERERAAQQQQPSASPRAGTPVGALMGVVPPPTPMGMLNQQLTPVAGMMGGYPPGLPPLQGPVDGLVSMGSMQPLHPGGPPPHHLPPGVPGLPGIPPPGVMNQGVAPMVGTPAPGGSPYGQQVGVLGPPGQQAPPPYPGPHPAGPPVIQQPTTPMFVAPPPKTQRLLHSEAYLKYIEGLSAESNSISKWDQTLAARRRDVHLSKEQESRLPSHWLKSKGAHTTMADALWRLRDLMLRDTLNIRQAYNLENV", "UniProt O00519, sequence (whole entry, looked up)": "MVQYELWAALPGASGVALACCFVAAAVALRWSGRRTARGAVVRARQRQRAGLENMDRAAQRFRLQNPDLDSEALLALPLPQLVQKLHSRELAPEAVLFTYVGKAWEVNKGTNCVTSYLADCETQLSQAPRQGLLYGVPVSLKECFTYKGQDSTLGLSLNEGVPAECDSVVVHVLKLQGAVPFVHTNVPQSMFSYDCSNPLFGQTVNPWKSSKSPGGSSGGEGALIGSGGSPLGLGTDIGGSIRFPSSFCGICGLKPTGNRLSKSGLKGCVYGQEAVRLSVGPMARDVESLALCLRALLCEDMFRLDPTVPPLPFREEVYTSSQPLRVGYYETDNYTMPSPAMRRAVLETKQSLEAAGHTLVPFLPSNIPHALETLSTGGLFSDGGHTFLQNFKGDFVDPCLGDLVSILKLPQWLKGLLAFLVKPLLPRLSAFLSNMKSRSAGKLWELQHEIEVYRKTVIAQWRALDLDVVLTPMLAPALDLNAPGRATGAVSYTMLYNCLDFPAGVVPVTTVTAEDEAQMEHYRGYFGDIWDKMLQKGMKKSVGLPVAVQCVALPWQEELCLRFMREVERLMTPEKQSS"}
{"data": "Set 1", "SMILES": "Cc1cc(OCc2nnc(SC3CCCC3)n2-c2cccnc2)ccc1-c1ccc(S(C)(=O)=O)cc1"}
{"cell line": "M14", "GI50": "1440 nM"}
{"cell line": "MDA-MB-435", "GI50": "1020 nM"}
{"cell line": "BT-549", "GI50": "180 nM"}
{"cell line": "HCT-116", "GI50": "622 nM"}
{"cell line": "SK-MEL-28", "GI50": "1680 nM"}
{"cell line": "OVCAR-5", "GI50": "1820 nM"}
{"cell line": "K562", "GI50": "210 nM"}
{"data": "Mixed results"}
{"Molecule": "human neuropeptide Y", "target or system": "NPY1R (Homo sapiens, UniProt P25929)", "assay": "agonist, ELISA", "test system": "SK-N-MC cells", "conditions": "1.0 nM, 1 h, 37 °C, with: forskolin 10 µM", "how to read": "relative to: forskolin-stimulated saline-treated cells", "quantity": "cAMP level", "result": "59.6 ± 6.8%"}
{"Molecule": "C#Cc1cccc(Nc2ncnc3cc(OCCOC)c(OCCOC)cc23)c1", "target or system": "HepG2", "assay": "MTT", "conditions": "100 µg/mL, maintenance medium, 2% serum", "quantity": "viability", "result": "23.7%"}
{"Molecule": "Cc1ccc(S(=O)(=O)Nc2c(N3CCC(NC(=O)Nc4ccc(F)c(Cl)c4)CC3)c(=O)c2=O)cc1", "target or system": "EPHX2 (Homo sapiens, UniProt P34913)", "quantity": "IC50", "result": "75.1 ± 8.5 nM"}
{"Molecule": "cyclic GMP-AMP", "target or system": "Bromodomain-containing protein 4, BD1 (BRD4, Homo sapiens, UniProt O60885)", "assay": "binding, thermal shift", "conditions": "200 µM, BD1 domain", "quantity": "ΔTm", "result": "-0.45 ± 0.58 °C"}
{"Molecule": "O=C(Nc1ccc(-c2ccc3ccccc3n2)cc1)C1CCN(Cc2cccc(F)c2)CC1", "target or system": "FAAH (Homo sapiens, UniProt O00519)", "quantity": "IC50", "result": "197 nM"}
{"Molecule": "CC[C@@H]1C(=O)N(C)c2cnc(Nc3ccc(C(=O)NC4CCN(C)CC4)cc3OC)nc2N1C1CCCC1", "target or system": "Protein polybromo-1, BD1 (PBRM1, Homo sapiens, UniProt Q86U86)", "assay": "thermal stabilisation, thermal shift", "conditions": "10 µM", "quantity": "ΔTm", "result": "0.24 ± 0.15 °C"}
{"Molecule": "N#Cc1ccc(-c2csc(CNC(=O)C34CC(CN(C(=O)COCCF)C3)C4)n2)cc1", "test system": "rat, Sprague Dawley, male, liver microsomes", "conditions": "0.5 µM", "quantity": "CLint", "result": "< 3 µL/min/mg"}
{"note": "Repeated from above (mixed results):"}
{"Molecule": "O=C(Nc1ccc(-c2ccc3ccccc3n2)cc1)C1CCN(Cc2cccc(F)c2)CC1", "target or system": "FAAH (Homo sapiens, UniProt O00519)", "quantity": "IC50", "result": "197 nM"}
{"Molecule": "CC[C@@H]1C(=O)N(C)c2cnc(Nc3ccc(C(=O)NC4CCN(C)CC4)cc3OC)nc2N1C1CCCC1", "target or system": "Protein polybromo-1, BD1 (PBRM1, Homo sapiens, UniProt Q86U86)", "assay": "thermal stabilisation, thermal shift", "conditions": "10 µM", "quantity": "ΔTm", "result": "0.24 ± 0.15 °C"}
